Published values of several laboratories.
Lines come from different studies, so protocols differ. ± gives the spread as reported.
DCN1-like protein 1 PONY domain: DCN1-like protein 1, PONY domain (Homo sapiens, UniProt Q96GG9)
TYMS: Thymidylate synthase (TYMS, Homo sapiens, UniProt P04818)
UniProt P04818, sequence (whole entry, looked up): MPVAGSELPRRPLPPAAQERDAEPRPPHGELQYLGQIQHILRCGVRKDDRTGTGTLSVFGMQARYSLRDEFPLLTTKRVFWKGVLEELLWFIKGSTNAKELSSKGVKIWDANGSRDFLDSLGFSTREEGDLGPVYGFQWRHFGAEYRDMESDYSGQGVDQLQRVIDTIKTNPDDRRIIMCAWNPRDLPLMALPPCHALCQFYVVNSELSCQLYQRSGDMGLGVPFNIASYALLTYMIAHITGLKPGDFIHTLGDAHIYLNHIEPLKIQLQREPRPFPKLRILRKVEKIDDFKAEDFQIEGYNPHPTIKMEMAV
PARP1: Poly [ADP-ribose] polymerase 1 (PARP1, Homo sapiens, UniProt P09874)
UniProt P09874, sequence (whole entry, looked up): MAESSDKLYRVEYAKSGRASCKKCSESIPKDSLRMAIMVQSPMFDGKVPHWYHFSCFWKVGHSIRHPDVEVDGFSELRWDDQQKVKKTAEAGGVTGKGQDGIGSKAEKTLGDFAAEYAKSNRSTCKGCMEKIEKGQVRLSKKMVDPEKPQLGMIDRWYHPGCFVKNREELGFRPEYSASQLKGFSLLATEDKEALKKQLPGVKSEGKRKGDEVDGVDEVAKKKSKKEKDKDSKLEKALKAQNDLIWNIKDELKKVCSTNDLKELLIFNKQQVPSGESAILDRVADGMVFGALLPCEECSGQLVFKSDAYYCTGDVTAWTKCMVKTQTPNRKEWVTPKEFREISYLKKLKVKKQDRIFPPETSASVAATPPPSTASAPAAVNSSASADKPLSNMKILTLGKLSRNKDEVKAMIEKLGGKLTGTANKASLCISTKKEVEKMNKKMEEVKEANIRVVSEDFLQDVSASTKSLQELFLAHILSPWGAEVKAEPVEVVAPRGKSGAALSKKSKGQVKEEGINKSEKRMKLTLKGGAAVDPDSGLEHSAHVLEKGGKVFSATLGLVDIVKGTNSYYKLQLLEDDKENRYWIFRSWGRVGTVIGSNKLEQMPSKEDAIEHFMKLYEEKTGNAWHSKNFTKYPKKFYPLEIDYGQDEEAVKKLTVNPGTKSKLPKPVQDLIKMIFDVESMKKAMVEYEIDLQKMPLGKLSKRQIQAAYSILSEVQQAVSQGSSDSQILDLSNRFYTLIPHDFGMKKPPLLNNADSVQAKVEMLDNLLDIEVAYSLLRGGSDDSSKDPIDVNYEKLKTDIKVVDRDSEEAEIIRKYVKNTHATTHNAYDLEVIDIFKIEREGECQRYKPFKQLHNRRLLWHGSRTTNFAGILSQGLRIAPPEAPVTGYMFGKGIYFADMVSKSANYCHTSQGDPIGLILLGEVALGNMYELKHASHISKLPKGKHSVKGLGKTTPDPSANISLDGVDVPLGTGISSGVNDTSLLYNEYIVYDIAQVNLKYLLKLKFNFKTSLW
F11: Coagulation factor XI (F11, Homo sapiens, UniProt P03951)
UniProt P03951, sequence (whole entry, looked up): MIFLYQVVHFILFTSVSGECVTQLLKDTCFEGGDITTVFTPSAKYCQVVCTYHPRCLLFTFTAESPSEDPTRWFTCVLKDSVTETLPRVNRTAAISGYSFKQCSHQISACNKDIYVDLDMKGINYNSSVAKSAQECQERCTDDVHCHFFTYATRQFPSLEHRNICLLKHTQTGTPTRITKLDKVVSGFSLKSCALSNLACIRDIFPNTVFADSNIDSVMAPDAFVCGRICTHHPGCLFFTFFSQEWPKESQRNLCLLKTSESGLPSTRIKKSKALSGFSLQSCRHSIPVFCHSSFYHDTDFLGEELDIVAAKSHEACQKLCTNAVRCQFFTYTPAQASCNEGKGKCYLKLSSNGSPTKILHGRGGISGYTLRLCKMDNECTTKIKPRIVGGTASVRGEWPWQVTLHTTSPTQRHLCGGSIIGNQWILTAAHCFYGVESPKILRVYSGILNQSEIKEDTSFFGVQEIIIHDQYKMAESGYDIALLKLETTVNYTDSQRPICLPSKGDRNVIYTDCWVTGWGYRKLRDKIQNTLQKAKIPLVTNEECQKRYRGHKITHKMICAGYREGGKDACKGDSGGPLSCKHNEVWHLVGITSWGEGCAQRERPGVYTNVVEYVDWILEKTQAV
Protein lin-28 homolog A: Protein lin-28 homolog A (Mus musculus, UniProt Q8K3Y3)
UniProt Q8K3Y3, sequence (whole entry, looked up): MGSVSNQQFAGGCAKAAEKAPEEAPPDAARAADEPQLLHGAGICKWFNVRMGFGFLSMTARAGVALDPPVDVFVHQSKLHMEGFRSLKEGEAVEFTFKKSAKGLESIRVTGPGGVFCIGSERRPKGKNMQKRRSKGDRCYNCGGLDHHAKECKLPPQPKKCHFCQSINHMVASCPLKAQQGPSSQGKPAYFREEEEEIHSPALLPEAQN
TGFBR1: TGF-beta receptor type-1 (TGFBR1, Homo sapiens, UniProt P36897)
UniProt P36897, sequence (whole entry, looked up): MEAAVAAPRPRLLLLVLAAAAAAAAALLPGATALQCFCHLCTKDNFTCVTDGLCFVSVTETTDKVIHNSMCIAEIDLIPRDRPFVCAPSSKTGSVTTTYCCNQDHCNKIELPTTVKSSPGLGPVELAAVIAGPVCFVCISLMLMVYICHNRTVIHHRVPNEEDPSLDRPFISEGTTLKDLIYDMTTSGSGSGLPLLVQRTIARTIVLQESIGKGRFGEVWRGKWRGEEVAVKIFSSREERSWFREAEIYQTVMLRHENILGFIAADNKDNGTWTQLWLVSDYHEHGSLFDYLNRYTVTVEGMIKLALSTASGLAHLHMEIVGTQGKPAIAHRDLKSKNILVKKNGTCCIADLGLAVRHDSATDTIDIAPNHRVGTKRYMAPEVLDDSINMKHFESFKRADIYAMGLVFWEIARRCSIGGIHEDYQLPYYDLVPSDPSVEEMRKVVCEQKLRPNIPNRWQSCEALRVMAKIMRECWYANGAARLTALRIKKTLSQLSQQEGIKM
JAK2: Tyrosine-protein kinase JAK2 (JAK2, Homo sapiens, UniProt O60674)
UniProt P06396, sequence (whole entry, unmodified, looked up): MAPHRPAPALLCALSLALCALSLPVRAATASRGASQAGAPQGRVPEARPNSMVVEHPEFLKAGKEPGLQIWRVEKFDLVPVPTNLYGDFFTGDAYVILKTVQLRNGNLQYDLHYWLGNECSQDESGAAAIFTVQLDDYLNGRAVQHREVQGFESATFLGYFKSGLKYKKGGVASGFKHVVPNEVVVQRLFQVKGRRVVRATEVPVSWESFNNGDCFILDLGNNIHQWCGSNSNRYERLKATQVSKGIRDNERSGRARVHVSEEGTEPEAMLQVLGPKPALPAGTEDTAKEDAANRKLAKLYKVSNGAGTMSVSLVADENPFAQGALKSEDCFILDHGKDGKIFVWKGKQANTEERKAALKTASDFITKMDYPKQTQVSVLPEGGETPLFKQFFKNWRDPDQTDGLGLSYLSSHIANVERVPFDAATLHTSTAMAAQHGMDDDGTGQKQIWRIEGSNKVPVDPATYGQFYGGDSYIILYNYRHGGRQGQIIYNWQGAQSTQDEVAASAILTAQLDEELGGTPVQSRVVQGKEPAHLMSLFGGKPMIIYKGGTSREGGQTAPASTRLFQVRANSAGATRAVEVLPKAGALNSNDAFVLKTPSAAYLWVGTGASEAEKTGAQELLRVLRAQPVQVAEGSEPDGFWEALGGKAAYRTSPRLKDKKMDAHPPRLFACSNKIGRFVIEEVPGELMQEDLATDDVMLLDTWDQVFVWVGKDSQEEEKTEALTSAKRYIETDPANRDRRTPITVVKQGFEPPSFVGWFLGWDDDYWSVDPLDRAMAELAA
UniProt O60674, sequence (whole entry, looked up): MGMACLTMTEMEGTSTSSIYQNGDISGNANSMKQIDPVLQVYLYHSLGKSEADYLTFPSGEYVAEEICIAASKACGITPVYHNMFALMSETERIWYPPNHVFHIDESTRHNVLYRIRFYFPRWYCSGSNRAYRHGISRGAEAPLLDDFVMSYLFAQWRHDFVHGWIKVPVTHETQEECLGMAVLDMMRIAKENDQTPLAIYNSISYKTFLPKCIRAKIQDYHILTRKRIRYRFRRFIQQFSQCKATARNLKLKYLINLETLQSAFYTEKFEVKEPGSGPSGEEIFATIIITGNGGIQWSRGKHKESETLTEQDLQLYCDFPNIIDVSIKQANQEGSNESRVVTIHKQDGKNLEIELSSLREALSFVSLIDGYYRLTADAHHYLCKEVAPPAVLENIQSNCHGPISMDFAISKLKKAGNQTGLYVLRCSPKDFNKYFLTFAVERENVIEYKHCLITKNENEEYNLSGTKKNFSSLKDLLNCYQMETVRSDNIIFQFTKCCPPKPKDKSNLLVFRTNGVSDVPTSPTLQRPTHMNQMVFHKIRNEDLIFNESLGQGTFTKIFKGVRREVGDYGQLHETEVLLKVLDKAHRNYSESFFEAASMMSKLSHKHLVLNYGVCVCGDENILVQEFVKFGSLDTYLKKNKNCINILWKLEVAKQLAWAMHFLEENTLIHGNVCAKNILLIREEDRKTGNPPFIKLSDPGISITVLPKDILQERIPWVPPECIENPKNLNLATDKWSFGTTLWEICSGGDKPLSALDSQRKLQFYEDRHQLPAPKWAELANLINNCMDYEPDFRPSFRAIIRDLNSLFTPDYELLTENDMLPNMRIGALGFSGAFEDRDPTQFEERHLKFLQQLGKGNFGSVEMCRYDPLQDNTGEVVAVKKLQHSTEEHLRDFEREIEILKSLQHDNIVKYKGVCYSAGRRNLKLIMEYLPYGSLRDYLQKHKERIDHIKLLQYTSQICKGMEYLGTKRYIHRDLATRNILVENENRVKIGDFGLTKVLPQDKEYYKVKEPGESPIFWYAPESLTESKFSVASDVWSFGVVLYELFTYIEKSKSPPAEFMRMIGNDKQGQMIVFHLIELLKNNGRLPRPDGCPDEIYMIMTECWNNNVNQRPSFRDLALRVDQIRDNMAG
UniProt Q9H5I1, sequence (whole entry, looked up): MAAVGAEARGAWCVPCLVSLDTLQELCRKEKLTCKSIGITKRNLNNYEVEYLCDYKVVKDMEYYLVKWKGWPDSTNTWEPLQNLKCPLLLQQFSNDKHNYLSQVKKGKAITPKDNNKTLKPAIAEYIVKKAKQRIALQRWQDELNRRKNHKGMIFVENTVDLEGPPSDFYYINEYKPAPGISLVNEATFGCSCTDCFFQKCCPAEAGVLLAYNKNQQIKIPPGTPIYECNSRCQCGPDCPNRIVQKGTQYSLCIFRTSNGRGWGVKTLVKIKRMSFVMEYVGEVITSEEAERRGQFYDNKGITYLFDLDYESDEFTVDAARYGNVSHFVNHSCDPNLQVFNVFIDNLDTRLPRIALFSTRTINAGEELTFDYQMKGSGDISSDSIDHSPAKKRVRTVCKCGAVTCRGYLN

C=CC(=O)NCCCN(C(=O)Nc1cccc(C(F)(F)F)c1)C1CCN(C(C)CCC)CC1 (centres unmarked)
IC50 (DCN1-like protein 1 PONY domain; binding, inhibitor, TR-FRET; 24 h, racemic mixture): 7.5 ± 1.89 µM

Nc1ccnc(-c2ccccc2)c1
IC50 (TMEM175 (Homo sapiens, UniProt Q9BSA9); potassium current, inhibitor, whole-cell patch clamp; HEK293T; pH neutral, +80 mV pulse): ~32 µM

Nc1nc(N)c2nc(CNc3ccc(C(=O)c4ccccc4)cc3)cnc2n1
IC50 (TYMS; inhibitor): > 100 µM

NC(=O)c1cccc2c1O/C(=C\c1ccc(C(=O)N3CCC4(CC3)C(=O)Nc3ccccc34)s1)C2=O
IC50 (PARP1; inhibitor): 0.55 µM

CCCCOc1cc(C(=O)OCCN(CC)CC)ccc1N
inhibition (THP-1; pyroptotic LDH release; 2 µM, 40 min, together with: LPS then nigericin): 20.8%

C=CC(=O)NCc1cccc(CN(C(=O)Nc2cccc(C(F)(F)F)c2)C2CCN(C(C)CCC)CC2)c1 (centres unmarked)
IC50 (DCN1-like protein 1 PONY domain; binding, inhibitor, TR-FRET; 24 h, racemic mixture): 0.066 ± 0.038 µM

COCc1nn(Cc2ccc(Cn3ccccc3=O)cc2)cc1C(=O)NCc1c(F)ccc(OC)c1F
IC50 (F11): > 40 µM

N=C(N)SCc1ccccc1Cl
IC50 (Protein lin-28 homolog A): 11.2 µM

Clc1ccc(Nc2ccncc2)cc1Cl
IC50 (APEX1 (Homo sapiens, UniProt P27695); DNA glycosylase activity, inhibitor, fluorescent DNA cleavage): > 99 µM

Cc1cccc(-c2nc(-c3ccc(C#N)cc3)[nH]c2-c2ccncc2)c1
IC50 (TGFBR1; binding, LanthaScreen kinase binding): 1.57 ± 0.394 µM

CN1CCN(c2ccc(Nc3ncc4cc(C#N)c(=O)n(C5CCCC5)c4n3)cc2)CC1
IC50 (cGMP-dependent protein kinase 1, isoform beta (PRKG1, Homo sapiens, UniProt Q13976)): > 10 µM

C#CCN(Cc1cnc2nc(N)nc(N)c2n1)c1ccc(C(=O)N2CCC(C(=O)OC)CC2)cc1
IC50 (TYMS; inhibitor): > 100 µM

NC(=O)c1cccc2c1O/C(=C\c1ccc(C(=O)N[C@H]3CCNC3)s1)C2=O
IC50 (PARP1; inhibitor): 0.092 µM

Fc1ccc(-c2nc(-c3cccnc3)[nH]c2-c2ccncc2)cc1
IC50 (TGFBR1; binding, LanthaScreen kinase binding): 2.3 ± 0.0356 µM

COC(=O)C1CCN(C(=O)c2cccc(NCc3cnc4nc(N)nc(N)c4n3)c2)CC1
IC50 (TYMS; inhibitor): > 100 µM

COc1ccc(F)c(CNC(=O)c2cnn(Cc3ccc(Cn4ccccc4=O)cc3)c2)c1F
IC50 (F11): > 40 µM

COc1cc(Oc2ccc(CNCc3cnc4nc(N)nc(N)c4n3)cc2)cc(OC)c1OC
IC50 (TYMS; inhibitor): > 100 µM

CCCCCCCC/C=C1/C=C(C(F)(F)F)c2cc(OC)c(OC)cc21
IC50 (Thioredoxin (TXN, Homo sapiens, UniProt P10599); insulin reduction, inhibitor; 1 h, 37 °C, preincubation): no inhibition

O=C1OC2COC(=O)C2C=C1NC(=O)c1ccc(Cl)cc1 (centres unmarked)
IC50 (Protein lin-28 homolog A): 8.1 µM

CCCC(C)N1CCC(N(Cc2ccccc2NC(=O)CC)C(=O)Nc2cccc(C(F)(F)F)c2)CC1 (centres unmarked)
IC50 (DCN1-like protein 1 PONY domain; inhibitor, TR-FRET; preincubation 24 h): 1.46 ± 0.237 µM

COC(=O)C1CCN(C(=O)c2ccc(N(CCO)Cc3cnc4nc(N)nc(N)c4n3)cc2)CC1
IC50 (TYMS; inhibitor): > 100 µM

Cn1c(SCc2ccccc2Cl)nc(=O)c2c1NC(=O)CC2c1cccc(O)c1 (centres unmarked)
IC50 (Protein lin-28 homolog A): 12.3 µM

c1coc(CNc2ncnc3[nH]cnc23)c1
IC50 (Gelsolin, peptide (GSN, Homo sapiens, UniProt P06396, D214Y); amyloid aggregation, inhibitor, ThT fluorescence; 12 h, 37 °C): 38 ± 1.5 µM

Nc1ncnc2c1ncn2[C@@H]1O[C@H](CSCC[C@H](N)C(=O)O)[C@@H](O)[C@H]1O
IC50 (SUV39H2 (Homo sapiens, UniProt Q9H5I1); enzyme activity, inhibitor; single data points): 55.1 µM

COC(=O)c1ccc(-c2nc(-c3cccc(C)c3)c(-c3ccncc3)[nH]2)cc1
IC50 (TGFBR1; binding, LanthaScreen kinase binding): 2.68 ± 0.449 µM

COc1cc2c(c(OC)c1OC)-c1c(cc3c(c1OC)OCO3)CC(C)C(C)C2 (centres unmarked)
IC50 (CYP3A, rat; poziotinib metabolism to M1, inhibitor; rat liver microsomes, 0.3 mg/mL; 30 min, together with: poziotinib 5 µM): 2.55 µM

C[C@@H]1CCO[C@H]2Cn3cc(C(=O)NCc4ccc(F)cc4F)c(=O)c(O)c3C(=O)N12
IC50 (FOLR1 (Homo sapiens, UniProt P15328); folate binding, antagonist, competition; allosteric, partial): ~4.4 µM

O=C(O)c1cc2cccc([N+](=O)[O-])c2[nH]1
IC50 (Protein lin-28 homolog A): 7.9 µM

COc1ccc([N+](=O)[O-])cc1-c1nc(-c2ccc(F)cc2)c(-c2ccncc2)[nH]1
IC50 (TGFBR1; binding, LanthaScreen kinase binding): 0.915 ± 0.011 µM

O=C(Nc1cccc2c(=O)cc(-c3nnn[nH]3)oc12)c1ccc(OCCCCc2ccccc2)cc1
IC50 (LRRC8A/LRRC8C (Homo sapiens, UniProt Q8IWT6+Q8TDW0, M48D/T48D); whole-cell patch clamp; HCT116 LRRC8-/- expressing heteromers; -100 mV): no effect

Nc1ccc(C(=O)NCC(=O)O)cc1
inhibition (THP-1; pyroptotic LDH release; 2 µM, 40 min, together with: LPS then nigericin): -3.65%

CC(=O)c1n[nH]c2ccc(-c3cnc4ccc(N(C)C5CCOCC5)nn34)cc12
IC50 (TYRO protein tyrosine kinase-binding protein, with TREM1 (TYROBP, Homo sapiens, UniProt O43914); split luciferase reporter; human cells; 6 h, treatment 48 h after induction, together with: doxycycline induction): 0.6 ± 0.1 µM

Cc1cc(Nc2cc(CN3CCOCC3)c3nc(C)c(Cc4ccc(Cl)cc4F)n3n2)n[nH]1
IC50 (JAK2; enzyme activity, inhibitor): 0.00252 ± 0.00049 µM

CCCC(C)N1CCC(N(Cc2ccccc2NC(=O)CCl)C(=O)Nc2cccc(C(F)(F)F)c2)CC1 (centres unmarked)
IC50 (DCN1-like protein 1 PONY domain; binding, inhibitor, TR-FRET; 24 h, racemic mixture): 0.256 ± 0.062 µM

Cc1ccc2nc(-c3ccc(N=NNc4ccc(-c5nc6ccc(C)c(S(=O)(=O)O)c6s5)cc4)cc3)sc2c1S(=O)(=O)O
IC50 (Luciferin 4-monooxygenase (Photinus pyralis, UniProt P08659); enzyme activity, inhibitor, luciferase): 2.8 µM

CC[C@@H]1[C@H](F)C(=O)N[C@@H]1COc1nccc2cc(C(N)=O)c(OC)cc12
IC50 (CLK2 (Homo sapiens, UniProt P49760); ATP-site probe binding, ActivX profiling; THP-1 cell lysate; Lys2 site): > 5 µM

COCc1nn(Cc2ccc(Cn3ccccc3=O)cc2)cc1C(=O)NCc1cc(C)[nH]n1
IC50 (F11): > 40 µM

Cc1cccc(-c2nc(-c3ccc(N)cc3)[nH]c2-c2ccncc2)c1
IC50 (TGFBR1; binding, LanthaScreen kinase binding): 4.57 ± 1.68 µM

NC(=O)NO
IC50 (MT-CYB/UQCRFS1 (Homo sapiens, UniProt P00156+P47985); oxygen consumption rate, inhibitor, Seahorse XF-96; HCT-116; complex III-driven): > 3000 µM

COc1ccc2c(=O)[nH]c3c(nnn3Cc3ccc(C)cc3)c2c1
IC50 (PARP4 (Homo sapiens, UniProt Q9UKK3)): 7.41 µM

Nc1nccc(-c2c(-c3ccc(F)cc3)ncn2C2CCCCC2)n1
IC50 (TGFBR1; binding, LanthaScreen kinase binding): 0.0632 ± 0.014 µM

CCN(CC)CCCC(C)Nc1ccnc2cc(Cl)ccc12 (centres unmarked)
IC50 (JAK2; enzyme activity, inhibitor; together with: 10 µM ATP): > 10 µM

C/C(=C\CNc1ncnc2[nH]cnc12)CO
IC50 (Gelsolin, peptide (GSN, Homo sapiens, UniProt P06396)): 14 ± 2 µM

C=Cc1ccccc1
IC50 (Cytochrome P450 2A13 (Homo sapiens, UniProt Q16696); enzyme activity, inhibitor; 20 min, pH 7.4): > 200 µM

Cn1c(=O)c2c(ncn2C)n(C)c1=O
IC50 (Sodium-dependent phosphate transport protein 1 (SLC17A1, Homo sapiens, UniProt Q14916); urate uptake; Xenopus oocytes; 1 h, pH 7.4, nicotinate-preloaded oocytes, together with: 40 µM [14C]urate): 680 µM

Cc1cccc(-c2nc(-c3ccc(/C(N)=N/O)cc3)[nH]c2-c2ccncc2)c1
IC50 (TGFBR1; binding, LanthaScreen kinase binding): 0.377 ± 0.0072 µM

COC(=O)C1CCN(C(=O)c2ccc(N(CCCO)Cc3cnc4nc(N)nc(N)c4n3)cc2)CC1
IC50 (TYMS; inhibitor): > 100 µM

Fc1ccc(-c2nc(-c3c(F)cccc3Cl)[nH]c2-c2ccncc2)cc1
IC50 (TGFBR1; binding, LanthaScreen kinase binding): 0.0415 ± 0.0093 µM

COC(=O)C1CCN(C(=O)Cc2ccc(NCc3cnc4nc(N)nc(N)c4n3)cc2)CC1
IC50 (TYMS; inhibitor): > 100 µM

NC(=O)c1cccc2c1O/C(=C\c1ccc(C(=O)NCCc3nc4ccccc4[nH]3)s1)C2=O
IC50 (PARP1; inhibitor): 0.057 µM
